Measurements gathered from unrelated publications.
Each line is one published result; not all experiments were run side by side. Several values in a cell are separate wells, animals, samples, runs or records. ± gives the spread as reported.

| SMILES | organism | assay | test system | setting | how to read | measurement | value |
| --- | --- | --- | --- | --- | --- | --- | --- |
| O=C1NC2(CCCc3ccccc32)C(=O)N1Cc1c(F)cccc1Cl (stereo not shown) | Trypanosoma brucei | viability, flow cytometry | bloodstream form | 24 h |  | EC50 | > 25 µM |
| CCCCCCCCCCCCCCCCNC | Oncorhynchus mykiss | liver S9 substrate depletion | rainbow trout liver S9 | tested individually |  | intrinsic clearance in vitro | 0.215 mL/h/mg S9 protein |
| Nc1ncnc2c([C@@H]3N[C@H](CO)[C@@H](O)[C@H]3O)c[nH]c12 | Zika virus |  | Vero 76, MR-766 | unit not given | baseline: CC50 over EC90 | SI90 | 11.6 |
| COc1cc2nccc(Oc3ccc(NC(=O)Nc4ccc(CC5CCNCC5)c(C(F)(F)F)c4)c(F)c3)c2cc1OC | Plasmodium falciparum |  | HepG2, 3D7 |  | baseline: HepG2 CC50 over P. falciparum EC50 | selectivity index | 33 fold |
| Cc1nc(C(=O)N2CCCC2c2ccc(F)c(F)c2)c(=O)[nH]c1C (stereo not shown) | Trypanosoma brucei | viability, flow cytometry | bloodstream form | 24 h |  | EC50 | > 25 µM |
| NC(=O)c1ncn([C@@H]2O[C@H](CO)[C@@H](O)[C@H]2O)n1 | Zika virus |  | Vero 76, MR-766 | unit not given | baseline: CC50 over EC90 | SI90 | 1.6 |
| O=C(CCc1c(-c2ccc(F)cc2)[nH]c2ccc(F)cc12)N1CCN(c2ccncc2)CC1 | Trypanosoma brucei | viability, flow cytometry | bloodstream form | 24 h |  | EC50 | 5.2 ± 3.2 µM |
| CCCCCCCCCCCC(=O)OCCN | Oncorhynchus mykiss | liver S9 substrate depletion | pooled rainbow trout liver S9 | pH 7.8, tested individually |  | intrinsic clearance in vivo | 357 mL/h/g liver |
| Oc1ccc(/C=C/c2cc(O)cc(O)c2)cc1 | Drosophila melanogaster | wing spot test | standard cross, wings | oral, concentration not given |  | total spots per fly | 0.67 Spots per Fly and 0.6 Spots per Fly and 0.57 Spots per Fly |
| CCCCCCCCN(C)C | Oncorhynchus mykiss | liver S9 substrate depletion | pooled rainbow trout liver S9 | pH 7.8, tested individually |  | intrinsic clearance in vivo | 201 mL/h/g liver |
| Clc1ccc(C(c2ccc(Cl)cc2)n2cc[n+](CC(OCc3ccc(Cl)cc3Cl)c3ccc(Cl)cc3Cl)c2)cc1 (stereo not shown) | Trypanosoma brucei | cell viability, flow cytometry, PI | bloodstream form | 24 h |  | EC50 | 0.55 ± 0.03 µM |
| CCCCCCCCCCCCCN | Oncorhynchus mykiss | liver S9 substrate depletion | pooled rainbow trout liver S9 | pH 7.8, tested individually |  | intrinsic clearance in vivo | 17 mL/h/g liver |
| COc1cc2nccc(Oc3ccc(NC(=O)Nc4ccc(CC5CCNCC5)cc4)c(F)c3)c2cc1OC | Plasmodium falciparum |  | HepG2, 3D7 |  | baseline: HepG2 CC50 over P. falciparum EC50 | selectivity index | 27 fold |

Excerpt of the above:
| SMILES | organism | assay | test system | setting | how to read | measurement | value |
| --- | --- | --- | --- | --- | --- | --- | --- |
| Oc1ccc(/C=C/c2cc(O)cc(O)c2)cc1 | Drosophila melanogaster | wing spot test | standard cross, wings | oral, concentration not given |  | total spots per fly | 0.67 Spots per Fly and 0.6 Spots per Fly and 0.57 Spots per Fly |
